Measurements from different studies.
Lines come from different studies, so protocols differ. Several values in a cell are separate wells, animals, samples, runs or records. Numbers after ± are the reported error.
Sequence of UniProt P42685 (whole entry, looked up): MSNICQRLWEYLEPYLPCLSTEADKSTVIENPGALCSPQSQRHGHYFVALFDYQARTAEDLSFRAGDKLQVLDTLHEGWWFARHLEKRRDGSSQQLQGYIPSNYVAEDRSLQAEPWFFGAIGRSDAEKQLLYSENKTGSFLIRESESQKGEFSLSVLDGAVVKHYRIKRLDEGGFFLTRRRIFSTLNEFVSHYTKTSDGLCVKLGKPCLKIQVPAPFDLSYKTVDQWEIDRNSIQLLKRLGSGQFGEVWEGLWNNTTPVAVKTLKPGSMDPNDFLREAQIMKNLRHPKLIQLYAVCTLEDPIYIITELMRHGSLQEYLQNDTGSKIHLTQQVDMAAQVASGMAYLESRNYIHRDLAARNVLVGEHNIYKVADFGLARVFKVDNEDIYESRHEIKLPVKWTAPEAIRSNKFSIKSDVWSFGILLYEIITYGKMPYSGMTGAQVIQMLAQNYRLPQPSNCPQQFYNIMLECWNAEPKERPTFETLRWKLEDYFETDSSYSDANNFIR
Sequence of UniProt P33533 (whole entry, looked up): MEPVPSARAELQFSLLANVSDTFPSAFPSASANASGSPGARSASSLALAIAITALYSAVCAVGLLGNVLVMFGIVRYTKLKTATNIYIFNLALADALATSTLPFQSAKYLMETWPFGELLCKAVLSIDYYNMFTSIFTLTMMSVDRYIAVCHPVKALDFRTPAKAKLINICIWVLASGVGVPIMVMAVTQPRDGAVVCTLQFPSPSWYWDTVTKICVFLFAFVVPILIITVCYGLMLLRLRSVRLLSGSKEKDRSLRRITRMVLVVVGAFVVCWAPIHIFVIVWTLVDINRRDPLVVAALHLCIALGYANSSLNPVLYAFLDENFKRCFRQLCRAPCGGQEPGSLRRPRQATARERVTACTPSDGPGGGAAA
Sequence of UniProt P10144 (whole entry, looked up): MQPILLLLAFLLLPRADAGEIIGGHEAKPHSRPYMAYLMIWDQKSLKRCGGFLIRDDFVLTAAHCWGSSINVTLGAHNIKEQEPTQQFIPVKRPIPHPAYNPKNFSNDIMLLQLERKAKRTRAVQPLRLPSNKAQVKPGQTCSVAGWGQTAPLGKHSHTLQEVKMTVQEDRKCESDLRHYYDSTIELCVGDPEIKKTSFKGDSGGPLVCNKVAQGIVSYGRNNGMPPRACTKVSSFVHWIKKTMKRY
Sequence of UniProt P49760 (whole entry, looked up): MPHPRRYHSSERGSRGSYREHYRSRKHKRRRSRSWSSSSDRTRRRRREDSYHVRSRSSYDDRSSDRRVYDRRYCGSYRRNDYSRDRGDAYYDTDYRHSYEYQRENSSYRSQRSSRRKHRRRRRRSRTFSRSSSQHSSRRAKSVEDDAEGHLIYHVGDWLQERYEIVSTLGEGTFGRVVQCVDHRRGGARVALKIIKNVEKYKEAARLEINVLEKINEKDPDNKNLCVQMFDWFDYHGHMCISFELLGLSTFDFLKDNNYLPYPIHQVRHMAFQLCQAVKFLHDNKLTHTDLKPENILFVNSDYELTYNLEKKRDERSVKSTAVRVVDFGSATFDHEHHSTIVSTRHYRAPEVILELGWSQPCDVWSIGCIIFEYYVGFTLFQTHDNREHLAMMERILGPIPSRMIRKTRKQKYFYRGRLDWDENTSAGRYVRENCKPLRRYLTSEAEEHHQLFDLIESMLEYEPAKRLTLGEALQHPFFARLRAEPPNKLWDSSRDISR
Sequence of UniProt Q9Y271 (whole entry, looked up): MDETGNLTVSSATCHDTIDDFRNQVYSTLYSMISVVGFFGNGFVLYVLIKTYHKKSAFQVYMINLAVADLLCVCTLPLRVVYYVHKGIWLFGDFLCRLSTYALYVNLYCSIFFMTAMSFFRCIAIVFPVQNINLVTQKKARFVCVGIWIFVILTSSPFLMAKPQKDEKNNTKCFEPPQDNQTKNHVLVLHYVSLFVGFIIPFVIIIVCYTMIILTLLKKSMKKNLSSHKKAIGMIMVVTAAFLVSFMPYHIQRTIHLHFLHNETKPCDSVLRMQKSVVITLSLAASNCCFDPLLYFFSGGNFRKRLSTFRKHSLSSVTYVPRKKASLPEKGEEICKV
Sequence of UniProt P35354 (whole entry, looked up): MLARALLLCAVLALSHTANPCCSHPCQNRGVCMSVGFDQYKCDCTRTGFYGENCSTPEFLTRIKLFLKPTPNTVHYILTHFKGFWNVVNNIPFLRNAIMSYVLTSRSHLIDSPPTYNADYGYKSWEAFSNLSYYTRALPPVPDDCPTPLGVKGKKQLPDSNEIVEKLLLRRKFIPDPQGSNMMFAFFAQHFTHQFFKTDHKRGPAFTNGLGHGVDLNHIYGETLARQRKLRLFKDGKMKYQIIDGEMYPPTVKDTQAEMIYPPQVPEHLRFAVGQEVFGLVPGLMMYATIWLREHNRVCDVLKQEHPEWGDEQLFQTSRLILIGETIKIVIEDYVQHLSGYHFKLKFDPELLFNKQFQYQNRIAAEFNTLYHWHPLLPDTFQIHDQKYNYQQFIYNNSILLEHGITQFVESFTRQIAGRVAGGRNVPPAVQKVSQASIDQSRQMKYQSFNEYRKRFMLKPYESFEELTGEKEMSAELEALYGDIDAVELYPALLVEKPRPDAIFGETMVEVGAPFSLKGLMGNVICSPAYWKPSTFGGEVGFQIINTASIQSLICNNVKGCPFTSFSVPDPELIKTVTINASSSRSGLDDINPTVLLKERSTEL
Sequence of UniProt P48426 (whole entry, looked up): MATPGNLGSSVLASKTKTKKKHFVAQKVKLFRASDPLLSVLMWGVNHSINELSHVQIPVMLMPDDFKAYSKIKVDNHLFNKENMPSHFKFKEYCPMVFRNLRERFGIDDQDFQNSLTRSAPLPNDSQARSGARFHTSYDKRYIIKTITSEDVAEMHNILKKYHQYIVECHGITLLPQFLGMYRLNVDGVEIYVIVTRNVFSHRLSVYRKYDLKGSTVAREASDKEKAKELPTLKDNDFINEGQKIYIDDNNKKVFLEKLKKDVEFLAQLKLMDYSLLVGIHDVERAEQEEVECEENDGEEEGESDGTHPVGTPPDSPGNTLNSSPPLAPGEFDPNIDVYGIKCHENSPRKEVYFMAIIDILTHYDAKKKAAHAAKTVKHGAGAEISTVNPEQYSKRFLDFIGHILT
Sequence of UniProt P38489 (whole entry, looked up): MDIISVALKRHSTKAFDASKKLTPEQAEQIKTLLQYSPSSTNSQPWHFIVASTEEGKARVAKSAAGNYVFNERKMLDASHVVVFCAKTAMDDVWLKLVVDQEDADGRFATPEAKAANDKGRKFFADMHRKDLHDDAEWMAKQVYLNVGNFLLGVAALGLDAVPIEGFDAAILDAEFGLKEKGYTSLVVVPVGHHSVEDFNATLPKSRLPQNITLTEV
Sequence of UniProt Q16288 (whole entry, looked up): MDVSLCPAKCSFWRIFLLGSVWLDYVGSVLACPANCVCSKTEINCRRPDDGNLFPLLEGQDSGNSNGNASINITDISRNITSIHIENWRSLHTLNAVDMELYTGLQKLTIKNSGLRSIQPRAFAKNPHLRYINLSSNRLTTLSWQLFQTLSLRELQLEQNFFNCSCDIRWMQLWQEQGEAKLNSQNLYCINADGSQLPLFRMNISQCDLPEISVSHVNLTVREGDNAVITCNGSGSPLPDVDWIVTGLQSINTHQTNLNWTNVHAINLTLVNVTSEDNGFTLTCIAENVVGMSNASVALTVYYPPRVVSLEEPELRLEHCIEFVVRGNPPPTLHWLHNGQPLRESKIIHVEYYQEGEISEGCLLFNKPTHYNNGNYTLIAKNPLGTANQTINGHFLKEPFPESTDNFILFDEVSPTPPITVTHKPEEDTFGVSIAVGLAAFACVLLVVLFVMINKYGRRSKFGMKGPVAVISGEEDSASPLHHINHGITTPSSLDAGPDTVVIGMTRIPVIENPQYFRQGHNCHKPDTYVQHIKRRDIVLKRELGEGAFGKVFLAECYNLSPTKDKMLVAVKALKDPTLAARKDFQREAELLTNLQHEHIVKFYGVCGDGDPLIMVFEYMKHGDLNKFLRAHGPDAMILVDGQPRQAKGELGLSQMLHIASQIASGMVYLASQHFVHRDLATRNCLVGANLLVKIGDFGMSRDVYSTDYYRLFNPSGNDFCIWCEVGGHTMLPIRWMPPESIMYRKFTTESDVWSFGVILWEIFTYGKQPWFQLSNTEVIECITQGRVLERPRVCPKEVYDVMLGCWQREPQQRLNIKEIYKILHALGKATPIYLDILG

CN(C)[C@H]1C[C@@]23CC[C@@]4(O2)C(=CC[C@]2(C)[C@@H](c5ccc6ccncc6c5)CC[C@H]24)C=C3[C@@H](O)[C@@H]1O — inhibition (PIP4K2A (Homo sapiens, UniProt P48426); ATP probe labelling, inhibitor, KiNativ profiling; 1 µM): -5%
CN(C)CCCSC(=S)N1CCN(C(=O)/C=C/c2coc3ccccc3c2=O)CC1 — MST response (Nucleoprotein (N, Tomato spotted wilt virus, UniProt P25999, R94A/Y184A); binding, microscale thermophoresis; 0.1221 µM; dose series): 0.21 a.u.
CS(C)(=O)=Nc1ccc(-c2ccc(-c3nc4cc(O[C@@H]5CO[C@H]6[C@@H]5OC[C@H]6O)[nH]c4cc3F)cc2)cc1 — inhibition (NTRK3 (Homo sapiens, UniProt Q16288); enzyme activity, inhibitor; 10 µM): 24%
COc1c(N2CC3CCCNC3C2)c(F)cc2c(=O)c(C(=O)OCc3ccc([N+](=O)[O-])cc3)cn(C3CC3)c12 (stereo not shown) — kcat (nfsB (Escherichia coli K-12, UniProt P38489); substrate; with: NADH 100 µM): 0.167 s⁻¹
O=C1NC(=O)c2c1c1cc(F)c[n+]3c1c1c2c2cc(O)ccc2[n]1[Ru-4]312([N]=C=S)[S+]3CC[S+]1CC[S+]2CC3 (stereo not shown) — remaining activity (FRK (Homo sapiens, UniProt P42685); enzyme activity; 100 nM, human enzyme, with: 10 µM ATP; reference: untreated): 29%
O=C1NC2(CC2)COc2ncc(F)cc2[C@H]2COCCN2c2ccn3ncc1c3n2 — organ-to-brain weight ratio (Sprague-Dawley rat, male, liver; oral, 10 mg/kg/day, 4 weeks dosing, end of recovery): 678 ± 45.8%
C[C@H](Oc1ccc(C(=O)c2ccc(F)cc2)cc1)C(=O)N1CCc2ccc(C(F)(F)F)cc21 — IC50 ratio (PFF0160c (Plasmodium falciparum, UniProt Q08210, E182D); enzyme activity, DCIP colorimetric; reference: E182D mutant over wild type): 0.5
C[C@H](NCc1ccc(-c2ccc(C(F)(F)F)cc2)cc1)C(N)=O — inhibition (CYSLTR1 (Homo sapiens, UniProt Q9Y271); radioligand binding, SafetyScreen panel; 1 µM, species human, with: 0.30 nM [3H]LTD4): 2%
CCc1nnc(-c2c(OC)cc(-c3cnc4cc(-c5cnn(C)c5)ccn34)cc2OC)o1 — remaining binding (PTGS2 (Homo sapiens, UniProt P35354); radioligand binding; 10 µM, SafetyScreen44 replicate 2; lower = stronger displacement): 93.9%
Cc1ncsc1-c1ccc([C@H](C)NC(=O)[C@@H]2C[C@@H](O)CN2C(=O)[C@@H](NC(=O)CN2CCC(CN3CCN(CCC(=O)N4CCN(c5ncc(-c6cc(NC(=O)c7ccc(F)cc7C(F)(F)F)c(N7C[C@@H](C)N(C)[C@@H](C)C7)cc6F)cn5)CC4)CC3)CC2)C(C)(C)C)cc1 — protein level (WD repeat protein WDS (Spodoptera frugiperda, UniProt A0A2H1VC02); degrader, targeted LC-MS; Sf9; concentration not given, with: bortezomib): 103% and 105% and 107% and 137%
CC[C@H](C)[C@H](NC(C)=O)C(=O)N[C@@H](CCC(=O)O)C(=O)N1CCC[C@H]1C(=O)NC(CS(=O)(=O)O)P(=O)(Oc1ccccc1)c1ccccc1 (stereo partly shown) — kinact/KI (Granzyme B (GZMB, Homo sapiens, UniProt P10144); enzyme activity, inhibitor, FRET): 138000 M⁻¹ s⁻¹
CCC(C)C1CN(C(CC2CCCCC2)CN2CCCC2CN2CCNCC2CO)CCN1CCCC1CCCC1 (stereo not shown) — remaining binding (Oprd1 (Rattus norvegicus, UniProt P33533); radioligand binding; rat brain membranes; 500 nM, pH 7.5, 25 °C, with: 2 nM [3H]DPDPE): 88.7%
C=C(c1ccccc1)[C@H](N)P(=O)(O)O — ΔH (PAL1 (Petroselinum crispum, UniProt P24481, Y110F); binding, ITC): -6 kcal/mol
CCOC(=O)[C@@H]1Cc2c(cc([N+](=O)[O-])cc2[N+](=O)[O-])[C@H](O)[C@]12C(=O)Nc1ccc(Br)cc12 — remaining binding (PIM3 (Homo sapiens, UniProt Q86V86); binding, competition with immobilised ligand; 0.1 µM): 46%
CC(C)[C@H]1NC(=O)C[C@H]2/C=C/CCSSC[C@@H](NC1=O)C(=O)N[C@H](Cc1cccc3ccccc13)C(=O)NCC(=O)O2 — inhibition (CLK2 (Homo sapiens, UniProt P49760); enzyme activity, inhibitor; 10 µM): -10.6%
CCCCC[C@@H]1OC(=O)[C@@H](C)N(C)C(=O)[C@H](CCCCC)OC(=O)[C@@H](C)N(C)C(=O)[C@H](CCCCC)OC(=O)[C@@H](C)N(C)C(=O)[C@H](CCCCC)OC(=O)[C@@H](C)N(C)C1=O — Ca2+ spark frequency (Ryr2 (Mus musculus, UniProt E9Q401); permeabilized ventricular cardiomyocytes, C57BL/6J mice; 25 µM, 15 min; reference: vehicle): decreased

A few entries again:
C[C@H](NCc1ccc(-c2ccc(C(F)(F)F)cc2)cc1)C(N)=O — inhibition (CYSLTR1 (Homo sapiens, UniProt Q9Y271); radioligand binding, SafetyScreen panel; 1 µM, species human, with: 0.30 nM [3H]LTD4): 2%
CC(C)[C@H]1NC(=O)C[C@H]2/C=C/CCSSC[C@@H](NC1=O)C(=O)N[C@H](Cc1cccc3ccccc13)C(=O)NCC(=O)O2 — inhibition (CLK2 (Homo sapiens, UniProt P49760); enzyme activity, inhibitor; 10 µM): -10.6%
